Measurements gathered from unrelated publications.
Each numbered part is a random draw from the data of one study; scales do not carry over between parts. Substitutions count along the parent as printed.

Block 1
Target: CREM, bZIP domain (human)
Technique: DHFR protein complementation
Matrix: yeast
Setting: single substitutions, most at no-binding floor
Relative to: wild-type JUN-FOS pair
Direction: higher = stronger binding
Parent: JUN, bZIP domain (human); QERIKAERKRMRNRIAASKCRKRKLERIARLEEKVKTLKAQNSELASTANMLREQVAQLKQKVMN; partner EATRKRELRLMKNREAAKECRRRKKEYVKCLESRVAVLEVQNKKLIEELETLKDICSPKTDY
| Substitution | binding fitness [natural log] |
| --- | --- |
| L45H | -1.59 |
| A40Q | -1.42 |
| T48E | -1.24 |
| A29L | -1.44 |
| V56G | -1.47 |
| T37A | -1.45 |
| T48K | -1.38 |
| A40S | -1.55 |
| V56E | -1.49 |
| N42W | -1.48 |
| Q41H | -1.49 |
| S43E | -1.29 |
| K34G | -1.2 |
| L31K | -1.52 |
| K39L | -1.42 |
| E54T | -1.32 |
| T37E | -1.44 |
| L31A | -1.52 |
| R30T | -1.39 |
| I28V | -1.47 |

Block 2
Target: PABPC1L2, full length, GST fusion (mouse, UniProt A0ABA7IW68)
Technique: RNAcompete
Molecule type: RNA
Matrix: in vitro
Tested at: 20 nM
Setting: 7-mer, probes averaged, single round
Relative to: mean of 7-mers
Direction: higher = stronger binding
Residues (chain): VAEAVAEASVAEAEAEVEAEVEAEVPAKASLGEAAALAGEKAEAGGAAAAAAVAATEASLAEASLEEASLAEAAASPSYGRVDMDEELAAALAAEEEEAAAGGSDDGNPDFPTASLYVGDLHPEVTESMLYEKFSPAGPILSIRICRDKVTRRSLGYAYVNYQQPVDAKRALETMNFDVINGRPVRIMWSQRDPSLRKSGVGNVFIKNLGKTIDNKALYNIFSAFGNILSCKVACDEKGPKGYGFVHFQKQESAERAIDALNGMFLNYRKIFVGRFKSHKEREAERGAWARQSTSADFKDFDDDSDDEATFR
| Oligonucleotide | 7-mer Z-score |
| --- | --- |
| UAUCUCU | -0.271 |
| AUGCUCC | -0.231 |
| AUUGCUG | -0.021 |
| UCAUGUU | -0.414 |
| CGCUGCG | -0.369 |
| ACUUGGU | 0.146 |
| GAUAGUG | -0.0627 |
| UCGCUUA | -0.36 |
| UGAUUUG | -0.24 |
| CCACAUG | -0.311 |
| UUGCAAC | -0.28 |
| CGGAGUA | 0.0805 |
| UAUGACC | -0.0246 |
| ACGUUAA | -0.0826 |
| UUUAGCA | -0.119 |
| CGCGGGU | -0.0772 |
| UGAGCGA | 0.0315 |
| UCGCGAG | -0.2 |

Block 3
Target: RNA binding protein fox-1 homolog 2, RRM domain, GST-SBP tag (RBFOX2, Homo sapiens, UniProt O43251-10, residues 100-194)
Technique: RNA Bind-n-Seq
Molecule type: RNA
Matrix: in vitro
Tested at: 365 nM
Setting: natural RNA segment, single round, ends assumed
Relative to: no-protein control
Direction: higher = stronger binding
Shared flanks, not repeated: GGGAGUUCUACAGUCCGACGAUC … UGGAAUUCUCGGGUGCCAA
Construct (chain): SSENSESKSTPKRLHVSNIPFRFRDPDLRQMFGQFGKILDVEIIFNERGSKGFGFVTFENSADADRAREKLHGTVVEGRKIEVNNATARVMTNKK
| Oligonucleotide | RBNS enrichment (R) |
| --- | --- |
| CUACGAGUAGGAUCUCUUCACGGAGGACCUGCAGCUUCAUCUUCUGGAUUGGAGAUUAUUCUUGGUUAUGUUUUGGAAUCAGUCCUUUAUCUUAGUGUGCACUUGAUUGU | 3.7 |
| UUCUAGAAACCGCAGCUGACAUCUCGACCCAAGAGAUUUAGGAUUCUCCUGUUUCAUCUGGGUCAGUUUGGCCAUAAUUCUGGGGUCAGGCCAGGCCUGGGUCCUGCCCU | 0.289 |
| CAUUGGUUUUAAUAAACUCUAAGGUAGUUAAAGAUGAAGGGCCAGCAUAUAUUUAUAUGAUAAGUUUAGAUUAUGAGCGUGAGUACCAAUUAAGUUUGAAUGAAUGCCCC | 0.328 |
| AGAGCAUAUAAUACUAUCUUAGCCAAACUUGCCUUUGCUUCACUCAUCAUGCAGCCUUCUGGGUUGGUUGCUAUAUAUAUCUUUUUUCCUUGAUGUCCCGUUCUCUUCCA | 0.31 |
| GGCUCUUUCCUAGGCCGCACAAGCUUCUGCAGCAAUCUCAGAGACUGAAACAGCUGAGAGCCUAUUAGAGACCUGCUGCAAUGGCUGUCAGCCUUGGGAAAGGGGGACUC | 0.918 |
| GAUAGAGGCAGUUUCUAGAGAACUCGGUCUUAUCGUGGGUUCUGGAGCACACCUCUCAGACCAGUCAGGAACACUGGGGAGGUGACAGCAGGUCCCCAGGGGCCUGCAGG | 0.266 |
| CAUUGAUAUUUCUCUGAUGUGAGAUAGAGCUGUGUGUGUGUGACUGGCUAGCAGCUAUCAGUAUUAGCGAGGUGUCUUGCCGAUAUCAGAGUCAGUGUGUCAUUUCAGUU | 0.602 |
| AAAUUUCAUGAUUGGCUUAAAGUGAAGGAAAUAAAGGUAAAAUCACUUCAGAUCUCUAAUUAGUCUAUCAAAUGAAACUCUUUCAUUCUUCUCACAUCCAUCUACUUUUU | 0.513 |

Block 4
Target: Interferon regulatory factor 5, full length, phosphomimetic (IRF5, Homo sapiens, UniProt Q13568-2, residues 1-514, K96S/S451D/S453D/S456D/S462D)
Technique: protein-binding microarray
Molecule type: double-stranded DNA, one strand shown
Matrix: in vitro
Tested at: 250 nM
Setting: 60-bp whole probe
Together with: salmon DNA 0.4 mg/ml
Relative to: random background probes
Direction: higher = stronger binding
Shared flanks, not repeated: GCCTAGCAC … GTCTTGATTCGCTTGACGCTGCTG
| Oligonucleotide | log fluorescence |
| --- | --- |
| GCCGATTTCGGGACTGGAGACGTGCTA | 2.17 z-score |
| GTAGGTCTCGGACTGGGTTAGTGCTAG | -0.564 z-score |
| TTAGGTTTCCTTTCCCTCTAGTGCTAG | 1.79 z-score |
| TTAGGTTCCGGTTTTGGTTAGTGCTAG | 3.07 z-score |
| GACGAACTGGGGTTTCGAGGCGTGCTA | 1.29 z-score |
| TCACCTTTTTTTTTTTTACTGTGCTAG | 1.13 z-score |
| TAAGATTTCGGGTTTCGATTAGTGCTA | 8.03 z-score |
| CTAGGTTTCGACTATCGGTTAGTGCTA | 9.21 z-score |
| GAAGGTATCGGTCTCGGGACGTGCTAG | 4.78 z-score |
| TTAGGTTTCGGGGCTGGGTTAGTGCTA | 5.14 z-score |
| TTAGGTTCCCTTTTCCTTTTGTGCTAG | 0.793 z-score |
| TTAAATTTCAGTATCGATTAGTGCTAG | 9.13 z-score |
| TGTTTTTGCTTTCTTTATGTGTGCTAG | 3.05 z-score |
| TTAGCTCTCAGTTTCGATTAGTGCTAG | 9.5 z-score |
| GACGGTTTAGGTTCCGGGACGTGCTAG | 0.172 z-score |
| GACGGTTTCGGACTGCGGACGTGCTAG | 4.28 z-score |
| GACGGTCGCCTTCTCCTGACGTGCTAG | -0.335 z-score |
| TTAGGTTTCGGTTCCGGTTGGTGCTAG | 10.3 z-score |
| TCAGTTTCCTCTTTCACACTGTGCTAG | 2.95 z-score |

Further values, each from its own experiment
| Substance | target | test | system | setting | scale | quantity | value |
| --- | --- | --- | --- | --- | --- | --- | --- |
| PhoQ, residues 284 288 289 292 302 303 GASLAW | PhoP, residues 12 14 15 18 19 GHCSL (Escherichia coli, UniProt P23836) | Sort-seq, refers to: YFP reporter | E. coli | PhoQ-PhoP variant library, together with: 10 µM Mg2+ | relative to: high Mg2+ state, higher = stronger signaling | fold induction | 4.74 |

For quick reference, copied from above (block 1):
| Substitution | binding fitness [natural log] |
| --- | --- |
| K39L | -1.42 |
| E54T | -1.32 |
| T37E | -1.44 |
| L31A | -1.52 |
| R30T | -1.39 |
